Measured values collected from several papers.
Every numbered part comes from another study and shows a few of its results, in no order.

Sample 1 — technique: universal PBM; form: double-stranded DNA, one strand shown; sample: in vitro; concentration: 600 nM; direction: higher = stronger binding; measurement: E-score
Target: Sal-like protein 4, full length isoform A (SALL4, Homo sapiens, UniProt Q9UJQ4, residues 1-1053)
UniProt Q9UJQ4, sequence (whole entry, looked up): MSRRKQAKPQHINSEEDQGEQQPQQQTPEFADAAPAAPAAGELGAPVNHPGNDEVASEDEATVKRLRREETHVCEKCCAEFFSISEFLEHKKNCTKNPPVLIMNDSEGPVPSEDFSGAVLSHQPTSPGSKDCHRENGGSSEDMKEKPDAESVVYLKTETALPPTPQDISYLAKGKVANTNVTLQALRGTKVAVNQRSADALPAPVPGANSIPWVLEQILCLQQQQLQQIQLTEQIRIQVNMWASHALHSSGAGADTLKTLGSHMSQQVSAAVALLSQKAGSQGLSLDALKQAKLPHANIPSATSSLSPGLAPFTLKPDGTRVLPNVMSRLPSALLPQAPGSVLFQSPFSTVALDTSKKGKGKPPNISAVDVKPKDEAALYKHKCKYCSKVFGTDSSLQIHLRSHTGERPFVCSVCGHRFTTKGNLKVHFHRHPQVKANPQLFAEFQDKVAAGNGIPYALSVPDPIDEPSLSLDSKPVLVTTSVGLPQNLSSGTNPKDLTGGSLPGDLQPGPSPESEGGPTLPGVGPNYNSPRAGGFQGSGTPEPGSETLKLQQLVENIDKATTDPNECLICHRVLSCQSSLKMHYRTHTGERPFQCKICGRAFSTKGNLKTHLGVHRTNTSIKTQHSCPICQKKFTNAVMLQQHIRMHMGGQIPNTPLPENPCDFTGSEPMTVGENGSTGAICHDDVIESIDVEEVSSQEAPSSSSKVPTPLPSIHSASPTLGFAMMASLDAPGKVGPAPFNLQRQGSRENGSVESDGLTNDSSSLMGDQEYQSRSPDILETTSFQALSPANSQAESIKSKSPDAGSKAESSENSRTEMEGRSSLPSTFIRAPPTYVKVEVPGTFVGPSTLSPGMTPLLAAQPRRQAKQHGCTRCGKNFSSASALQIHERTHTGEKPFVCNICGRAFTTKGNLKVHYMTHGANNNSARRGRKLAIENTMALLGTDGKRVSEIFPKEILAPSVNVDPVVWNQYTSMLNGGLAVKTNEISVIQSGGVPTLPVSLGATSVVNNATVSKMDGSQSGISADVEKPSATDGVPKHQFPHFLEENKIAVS
Setting: 8-mer, flanks averaged, mean of replicates
CGTTGATC: 0.0633
ATGTACCG: 0.0139
ACAATTTC: 0.254
ATTCCATG: 0.0364
CCTAACCA: 0.021
ACCAGCGG: -0.255
AACAGGGA: 0.0541
AAAGCCCC: -0.341
CCACCCAC: -0.211
CGGCAGAA: -0.191
CCGTCGAA: -0.11
AAAGCAAG: 0.16
AATACCGG: -0.0574
TACTCTCA: 0.108
CCGGTTGC: -0.199
CGATTGGA: -0.0675
AAGGCCTG: -0.241
TACTCGAA: 0.16
AACAGCTT: -0.086
GATTCGGA: 0.156
CTTGACAA: 0.127
ATCCCGTG: -0.118
AAAATACG: 0.237

Sample 2 — technique: RNA Bind-n-Seq; form: RNA; sample: in vitro; concentration: 1 µM; setting: whole 134-nt RNA, ends assumed; added: 150 mM KCl; relative to: input library; direction: higher = stronger binding; measurement: log2 enrichment
Target: Ras GTPase-activating protein-binding protein 1, C-terminal RGG region (G3BP1, Homo sapiens, UniProt Q13283)
UniProt Q13283, sequence (whole entry, looked up): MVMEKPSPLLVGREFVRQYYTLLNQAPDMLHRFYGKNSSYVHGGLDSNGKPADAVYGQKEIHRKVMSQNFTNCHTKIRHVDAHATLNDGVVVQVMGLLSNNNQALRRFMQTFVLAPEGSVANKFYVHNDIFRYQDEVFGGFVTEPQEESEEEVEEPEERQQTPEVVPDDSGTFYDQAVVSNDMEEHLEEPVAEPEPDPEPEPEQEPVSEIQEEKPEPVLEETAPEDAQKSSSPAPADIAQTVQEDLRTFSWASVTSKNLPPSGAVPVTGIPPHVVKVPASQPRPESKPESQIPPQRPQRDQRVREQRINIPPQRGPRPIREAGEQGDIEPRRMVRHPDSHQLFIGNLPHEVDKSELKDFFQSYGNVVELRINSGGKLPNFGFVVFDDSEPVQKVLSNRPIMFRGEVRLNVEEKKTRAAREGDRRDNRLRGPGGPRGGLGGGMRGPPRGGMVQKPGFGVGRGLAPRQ
Constant ends, left off below: GGGAGUUCUACAGUCCGACGAUC … UGGAAUUCUCGGGUGUCAAGG
UCAAGUCCUGUGCUACACAUCGUAUGUACCGAAUCGGAAAGGUUUGGAAAAAGGAAAGUAUUAUGUUACGCCGUUCGGAUCUGCACUUCC: -1.41
AAGUCCUGUGCUACACAUCGUAUGUACCGAAUCGGAAAAGGGGAAAAGGAAAAGGGGAAAGUAUUAUGUUACGCCGUUCGGAUCUGCACU: -1.06
UCCUCAAGUCCUGUGCUACACAUCGUAUGUACCGAAUCGGUGGGGUGGUGGGAAAGUAUUAUGUUACGCCGUUCGGAUCUGCACUUCCAG: 0.0353
AAGUCCUGUGCUACACAUCGUAUGUACCGAAUCGGGGUUUGGGUUUGGGUUUGGGGAAAGUAUUAUGUUACGCCGUUCGGAUCUGCACUU: 2.01
CUCAAGUCCUGUGCUACACAUCGUAUGUACCGAAUCGGGAAGGAAGGGAAGGGAAAGUAUUAUGUUACGCCGUUCGGAUCUGCACUUCCA: -0.637
CCUGUGCUACACAUCGUAUGUACCGAAUCGGGAAAAAAAGGGAAAAAGGGUUUUUUUGGGAAAGUAUUAUGUUACGCCGUUCGGAUCUGC: -1.58
UCAAGUCCUGUGCUACACAUCGUAUGUACCGAAUCGGGUUUUUGGGAGGGAGGGAAAGUAUUAUGUUACGCCGUUCGGAUCUGCACUUCC: 1.31
CACAGACAACACGCACCCACACAGACACAGAGGGAAGGGGUUGGGAUGGGGACAGUGUGCACAGCAGGGCGGGGUAGGACCCCAGCCCCU: -0.589
UCAAGUCCUGUGCUACACAUCGUAUGUACCGAAUCGGAAAAAGGUUUGGUUUGGAAAGUAUUAUGUUACGCCGUUCGGAUCUGCACUUCC: -1.43

Sample 3 — technique: protein binding microarray; form: double-stranded DNA, one strand shown; sample: in vitro; concentration: not given; relative to: not given; direction: higher = stronger binding; measurement: E-score
Target: Histone acetyltransferase KAT6A, winged helix 2, GST fusion (KAT6A, Homo sapiens, UniProt Q92794, residues 85-181)
Setting: 8-mer, flanks averaged, mean of 2 arrays, mostly near background
Construct (chain): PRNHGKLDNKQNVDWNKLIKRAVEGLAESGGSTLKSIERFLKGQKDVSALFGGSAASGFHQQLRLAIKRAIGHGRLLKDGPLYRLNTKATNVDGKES
CGCTCGAG: 0.168
ATGCGTAG: -0.0617
AGGGTAAA: -0.0062
AGGTCAAC: 0.0397
CAAAAGGC: 0.066
AGGTACAA: 0.00552
TATCTACA: -0.0945
CGATCCTC: -0.0643
ACCCCCAA: -0.0743
GATCACCA: 0.0316
GCATGCAA: 0.0129
ACATCCCG: -0.0857
AACTAAGA: 0.01
TAGCGATA: 0.0272
GGTCAACC: 0.184
CGCCAAGA: -0.0636
CAGCTGGA: -0.0141
AAGAGCCC: 0.109
TGTGGGAA: -0.0138
ATGATACG: 0.0888
ATGTGCTG: 0.0672
ACGGATTG: 0.0284
GTCGTGGA: 0.00438
CACTATAG: -0.14
ATCGGGTG: 0.0875

Sample 4 — technique: RNA Bind-n-Seq; form: RNA; sample: in vitro; concentration: 100 nM; relative to: input RNA pool; direction: higher = stronger binding; measurement: bound/input enrichment
Target: RING finger protein unkempt homolog, zinc fingers 1-6, SBP tag (UNK, Homo sapiens, UniProt Q9C0B0, residues 30-357)
UniProt Q9C0B0, sequence (30-357, looked up): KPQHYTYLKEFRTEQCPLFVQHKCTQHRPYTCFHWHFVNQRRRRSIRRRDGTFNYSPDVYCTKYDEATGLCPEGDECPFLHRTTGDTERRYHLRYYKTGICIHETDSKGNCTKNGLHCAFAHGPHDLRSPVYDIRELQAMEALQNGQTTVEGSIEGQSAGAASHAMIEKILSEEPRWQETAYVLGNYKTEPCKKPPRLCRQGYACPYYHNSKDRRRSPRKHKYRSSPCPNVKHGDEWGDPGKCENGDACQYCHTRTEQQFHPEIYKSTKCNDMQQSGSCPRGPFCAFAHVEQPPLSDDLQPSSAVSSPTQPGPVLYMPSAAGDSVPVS
Setting: RNA with constant flanks, vertebrate orthologous sites, ends assumed
Constant ends, left off below: GGGAGUUCUACAGUCCGACGAUC … CAACAGAGGAUUGAGCAUCA
ACAGGAGUAGUACAGGCUGUUUGAUCUUUGGAGAAAUGAGCUUUGCCUUUUAUAUUUAAAUAGGAUACUUUUAUAUGAUGGGUGCUUUGAGUGUGAAUGCAGCAGGCUCUCCAUUUCAGA: 1.23 ratio
CUACUAUAAACAACUCAGGGCAGUAUUCUCGAUAUCCUUACAGUAACCUAAAUCAGGGAUUAGUUAACAAUACAGGGAUGAAUCAAAAUUUAGGCCUUACAAAUAAUACCCCAAUGAAUC: 1.88 ratio
CCCCGAUUUUAGAUGUGAUAUUUAGGCUUUCAUUCCAGUUUGUUUUUGUCUUCUCUUGUUUAGAUACCAAUCUUUUAAAUUCUUGCAUUUUAGUAAGAAAGCUACCUUUUUAUGGAUGUU: 1.95 ratio
UCCGAGCACUUUGAUAAAAAGCGUGGACUGGUUGCUUGUAUUUUCCUUAUUCUUUUUAAUUAGUUUUAUUAUGUAUGCUACCGUUCGAACUGAGAGUAUUCGGUGGCUAAUUCCAGGACA: 6.78 ratio
AGAGGAUUAGGUUUGAUCCUUUACGUGUUUAAAAAAAAGCAUAAAAACAUUUUAAAAACAUAGAAAAAUUCAGCAAACCAUUUUUAAAGUAGAAGAGGGUUUUAGGUAGGAAAACGUAUU: 0.432 ratio
CCCCUGCCCUGAUUUUAAAAGUCCUUAUACCUUUUUUCCUUUUUUUUUUUUUUUUUAAAGGGAUAUGUAGUAAUGUUAGCAGAAAGAUUUAAUUUGGGCAACUUUGAUUCCUAAAGAGAA: 0.254 ratio
UCUUAUUACACUCUUCUAGGGAAGAGAUGAACUGGGGAAAACUCUCUCCUUUUUAUAGAUUAAUUUGUCUCUAAAUUAUGACCAAAAAUAUUUUGCUAUUUCUUUCUUUAUAUAUGCACA: 0.755 ratio
UUCAUUACCUGAGCAGAGUGGAGGUGACGGAGUUUGAAGACAUCAAGUCAGGCUACAGAAUAGAUUUUUCUCGUUAAUUUUUCCAUUUCUGAUGUGUGCGUGGUGUGUAGUCUUACUGCA: 1.06 ratio

A few entries again (sample 3):
ATCGGGTG: 0.0875
ATGTGCTG: 0.0672
TAGCGATA: 0.0272
CGATCCTC: -0.0643
CACTATAG: -0.14
AACTAAGA: 0.01
GATCACCA: 0.0316
AGGGTAAA: -0.0062
